Experimental data gathered from unrelated publications.
Protocols differ between the studies behind these lines. Values joined by “and” are separate records of one study, mostly repeats; a detail may differ.
Cell line: Vero

SMILES | assay | setting | endpoint | value
CC(=O)c1cccc(NC(=O)c2cc3c(=O)n4ccccc4nc3n2C)c1 | MTT | 6.3 µM, 24 (unit not given) | viability | 66.3%
Cc1cc(C)c(/C=C/c2nc(N)[nH]c(=O)c2Br)c(C)c1 | cell morphology alteration | – | minimum cytotoxic concentration | 100 µM
Cn1c(C(=O)Nc2ccc(Cl)cc2)cc2c(=O)n3ccccc3nc21 | MTT | 25 µM, 24 (unit not given) | viability | 65.6%
Cc1nn(-c2ccc(Cl)cc2)c2c1C(c1ccc(Cl)c(Cl)c1)C(C#N)=C(N)O2 (centres unmarked) | MTT | 100 µM | viability | 46.9%
CCc1ccc(NC(=O)c2cc3c(=O)n4ccccc4nc3n2C)cc1 | MTT | 100 µM, 24 (unit not given) | viability | 52.7%
Cc1nn(-c2ccc(Cl)cc2)c2c1C(c1ccc(-c3ccccc3)cc1)C(C#N)=C(N)O2 (centres unmarked) | MTT | 25 µM | viability | 54.1%
O=C(Nc1ccccc1F)c1cc2c(=O)n3ccccc3nc2n1Cc1ccccc1 | MTT | 0.4 µM, 24 (unit not given) | viability | 78.4%
O=C1CSCCN1c1ccc(CO[C@@H]2COc3nc([N+](=O)[O-])cn3C2)cc1 | cytotoxicity | – | IC50 | > 100 µg/mL
Cn1c(C(=O)Nc2ccc3c(c2)OCCO3)cc2c(=O)n3ccccc3nc21 | MTT | 0.4 µM, 24 (unit not given) | viability | 87.9%
N#C[Se]CC1Cc2c(Oc3cccc(F)c3)cccc2O1 (racemic) | cell viability, AlamarBlue | – | EC50 | > 10 µM
CC(C)C[C@H](NC(=O)[C@H](C)NC(=O)[C@@H](NC(=O)[C@H](CCCNC(=N)N)NC(=O)[C@H](CC(C)C)NC(=O)[C@H](Cc1c[nH]c2ccccc12)NC(=O)[C@@H]1CCCN1C(=O)[C@@H](N)CCCCN)C(C)C)C(=O)N[C@@H](CS)C(=O)N1CCC[C@H]1C(=O)NCC(=O)O | WST-1 | 4 µM, 24 h | viability | 97.7% and 107% and 104%
COc1c(C)c2c(c(O)c1C/C=C(\C)CCC(=O)O)C(=O)OC2 | item: cell morphology | – | minimal cytotoxic concentration | > 100 µM
CC[C@H](C)C(=O)O[C@H]1C[C@@H](C)C=C2C=C[C@H](C)[C@H](CC[C@@H]3C[C@@H](O)CC(=O)O3)[C@H]21 | monolayer disruption | 83.2 µM | cytotoxicity | toxic
Cc1nn(-c2ccc(Cl)cc2)c2c1C(c1ccc(Br)cc1)C(C#N)=C(N)O2 (centres unmarked) | MTT | 100 µM | viability | 42.6%
O=C1COCCN1c1ccc(CO[C@@H]2COc3nc([N+](=O)[O-])cn3C2)cc1F | cytotoxicity | – | IC50 | > 100 µg/mL
N#C[Se]CC1Cc2cccc(Oc3ccc(F)cc3)c2O1 (racemic) | cell viability, AlamarBlue | – | EC50 | > 10 µM
COc1ccc(/C=C/c2nc(N)[nH]c(=O)c2Br)cc1OC | cell morphology alteration | – | minimum cytotoxic concentration | > 100 µM
Cc1cccn2c(=O)c3cc(C(=O)Nc4ccc(N(C)C)cc4)n(C)c3nc12 | MTT | 25 µM, 24 (unit not given) | viability | 58%
Cc1nn(-c2ccc(Cl)cc2)c2c1C(c1ccc(Cl)cc1)C(C#N)=C(N)O2 (centres unmarked) | MTT | 25 µM | viability | 53%
Cc1ccc(NC(=O)c2cc3c(=O)n4cccc(C)c4nc3n2C)cc1Cl | MTT | 1.6 µM, 24 (unit not given) | viability | 78.3%
Nc1nc(CC(O)c2ccc(Cl)cc2)c(Br)c(=O)[nH]1 (centres unmarked) | cell morphology alteration | – | minimum cytotoxic concentration | > 100 µM
COc1ccc(C2C(C#N)=C(N)Oc3c2c(C)nn3-c2ccc(Cl)cc2)cc1 (centres unmarked) | MTT | 100 µM | viability | 46.3%
O=[N+]([O-])c1cn2c(n1)OC[C@@H](OCc1ccc(N3CCOCC3)nc1)C2 | cytotoxicity | – | IC50 | > 100 µg/mL
